Assay results pooled from the literature.
Lines come from different studies, so protocols differ. ± gives the spread as reported.

CN(C)c1ccc(-c2oc3ccccc3c(=O)c2OCc2ccccc2)cc1 — serum alkaline phosphatase (diabetic rat; 5 mg/kg, p-nitrophenyl β-glucoside induced): 197 ± 4.11 IU
CCCC[C@H](NC(=O)[C@@H](NC(=O)[C@H](CC(=O)O)NC(=O)[C@H](CCC(N)=O)NC(=O)[C@H](CC(C)C)NC(=O)[C@H](CC(C)C)NC(=O)[C@H](CCCN)NC(=O)[C@H](CCCNC(=N)N)NC(=O)[C@H](C)NC(=O)[C@H](CO)NC(=O)[C@H](CC(C)C)NC(=O)[C@H](CCC(N)=O)NC(=O)[C@H](CC)NC(=O)[C@H](CC(C)C)NC(=O)[C@@H](NC(=O)[C@H](CCCN)NC(=O)[C@H](CCCNC(=N)N)NC(=O)[C@H](Cc1ccc(O)cc1)NC(=O)[C@H](CO)NC(=O)[C@H](CCC(N)=O)NC(=O)[C@@H](NC(=O)[C@H](Cc1ccccc1)NC(=O)[C@@H](NC(=O)[C@H](C)NC(=O)[C@H](CC(=O)O)NC(=O)[C@@H](C)NC(=O)[C@H](Cc1ccc(O)cc1)NC)[C@@H](C)CC)[C@@H](C)O)C(C)C)[C@@H](C)CC)C(=O)N[C@@H](CC(=O)O)C(=O)NCCCCNC(=N)N — serum GH level (GH release, ELISA; male Sprague-Dawley rat, anaesthetised, serum; subcutaneous, 3 µg/kg, 30 min): 143 ± 18.4 ng/mL
CCCCCCCCCCCCCCCC(=O)N[C@@H](CCC(=O)NCCCC[C@H](NC(=O)[C@H](CC(=O)O)NC(=O)[C@H](CO)NC(=O)[C@@H](NC(=O)[C@H](Cc1ccccc1)NC(=O)[C@@H](NC(=O)CNC(=O)[C@H](CCC(N)=O)NC(=O)[C@H](CO)NC(=O)[C@@H](N)Cc1c[nH]cn1)[C@@H](C)O)[C@@H](C)O)C(=O)N[C@@H](CO)C(=O)N[C@@H](CCC(=O)O)C(=O)N[C@@H](Cc1ccc(O)cc1)C(=O)N[C@@H](CC(C)C)C(=O)N[C@@H](CC(=O)O)C(=O)N[C@@H](CO)C(=O)N[C@@H](CCC(=O)O)C(=O)N[C@@H](CCCNC(=N)N)C(=O)N[C@@H](C)C(=O)N[C@@H](CCCNC(=N)N)C(=O)N[C@@H](CC(=O)O)C(=O)N[C@@H](Cc1ccccc1)C(=O)N[C@H](C(=O)N[C@@H](C)C(=O)N[C@@H](Cc1c[nH]c2ccccc12)C(=O)N[C@@H](CC(C)C)C(=O)N[C@@H](CCC(=O)O)C(=O)N[C@@H](C)C(=O)NCC(=O)NCC(=O)O)C(C)C)C(=O)O — body weight loss (male cynomolgus monkey; subcutaneous, 27 nmol/kg/day for 8 weeks, day 57; baseline: starting body weight): 11%
Cc1ccc(S(=O)(=O)N(CCc2nnc(S)n2N)c2ccccc2)cc1 — analgesic protection (tail flick, radiant heat; rat; 200 mg/kg): 105%
C=C(c1ccc(C(=O)O)c(F)c1)c1cc2c(cc1C)C(C)(C)C=CC2(C)C — log2 fold change (RNA sequencing, refers to: Cyp26b1 mRNA; rat, brain; dose not given, 24 h, single dose; baseline: vehicle): -0.09
Cc1cc2c(c(=O)o1)C=C1CCC(C(C)CNCc3ccc(O)cc3)CC1O2 (stereo not drawn) — NMDA-dependent LTP magnitude (mouse hippocampal slices; 1 µM): 247 ± 20.7%
COc1ccc2c(c1)c(CC(=O)OCOC(C)=O)c(C)n2C(=O)c1ccc(Cl)cc1 — writhing count (BALB/c mice, acetic acid writhing; intraperitoneal, 20 mg/kg, 20 min count): 12.2 ± 0.7
COc1ccc(C(=O)CSc2nnc(COCCn3c([N+](=O)[O-])cnc3C)o2)cc1F — DPPH scavenging (50 µg/mL, 45 min): 61.7 ± 0.31%
COC(=O)C1C(c2nc3cc(OC)ccc3[nH]2)=Cc2cc3c(cc2C1c1cc(OC)c(OC)c(OC)c1)OCO3 (stereo not drawn) — selectivity index (Alamar Blue; splenocytes, mouse; baseline: CC50 splenocytes over EC50 amastigotes): > 13.7
CC1(CN)CCN(c2cnc(Sc3cccc(Cl)c3Cl)c(N)n2)CC1 — spleen index (imiquimod psoriasis mice; dose not given; baseline: model group): decreased
O=C(OC(C(F)(F)F)C(F)(F)F)N1CCC(CNS(=O)(=O)c2ccc(Cl)cc2)CC1 — writhing response (OF1 mouse PBQ writhing; oral, 1 and 3 mg/kg, 60 min before test): decreased
O=c1c(OCc2ccccc2)c(-c2ccc([N+](=O)[O-])cc2)oc2ccccc12 — serum LDL cholesterol (diabetic rat; 7.5 mg/kg, 28 days, p-nitrophenyl β-glucoside induced): 135 ± 4.09 mg/dL
Cc1ccc(CN2C(=O)/C(=N\c3ccc(Cl)cc3Br)c3ccccc32)cc1 — M2 macrophages in TAMs (flow cytometry; mouse tumour model, tumour tissue; ip, 10 mg/kg): 18.9%
CCCC[C@@H]1NC(=O)[C@H](Cc2ccc(O)cc2)NC(=O)[C@@H]2CCCN2C(=O)[C@H](CC(=O)O)NC(=O)[C@H](C)NC(=O)[C@H](Cc2ccccc2)NC(=O)[C@@H]2CSCCC(=O)N3CN(CN(C3)C(=O)CCSC[C@@H](C(=O)N[C@@H](C)C(N)=O)NC1=O)C(=O)CCSC[C@H](NC(C)=O)C(=O)N[C@@H](CC(C)(C)C)C(=O)N1CCC[C@H]1C(=O)N[C@@H](CCC(=O)O)C(=O)N[C@H](CCCCNC(=O)CCc1cn(CCOCCOCCOCCN(CCOCCOCCOCCC(=O)N[C@H]3CSCCC(=O)N4CN5CN(C4)C(=O)CCSC[C@H](NC(=O)[C@@H](CC(=O)O)NC(=O)[C@H](Cc4cccc6ccccc46)NC(=O)[C@@H]4CCCN4C3=O)C(=O)N[C@@H](CCSC)C(=O)N[C@@H](CCCCNC(=N)N)C(=O)N[C@@H](CC(=O)O)C(=O)N[C@@H](Cc3c[nH]c4ccccc34)C(=O)N[C@@H](CO)C(=O)N[C@@H]([C@@H](C)O)C(=O)N3CCC[C@H]3C(=O)N3C[C@H](O)C[C@H]3C(=O)N[C@@H](Cc3c[nH]c4ccccc34)C(=O)N[C@H](C(N)=O)CSCCC5=O)CCOCCOCCOCCn3cc(CCC(=O)NCCCC[C@H]4NC(=O)[C@H](CCC(=O)O)NC(=O)[C@@H]5CCCN5C(=O)[C@H](CC(C)(C)C)NC(=O)[C@@H](NC(C)=O)CSCCC(=O)N5CN6CN(C5)C(=O)CCSC[C@H](NC(=O)[C@H](Cc5ccc(O)cc5)NC(=O)[C@@H]5CCCN5C4=O)C(=O)N[C@@H](Cc4ccccc4)C(=O)N[C@@H](C)C(=O)N[C@@H](CC(=O)O)C(=O)N4CCC[C@H]4C(=O)N[C@@H](Cc4ccc(O)cc4)C(=O)N[C@@H](CCCC)C(=O)N[C@H](C(=O)N[C@@H](C)C(N)=O)CSCCC6=O)nn3)nn1)C(=O)N1CCC[C@H]1C(=O)N[C@@H](Cc1ccc(O)cc1)C(=O)N2 — number of modulated transcripts (NanoString; mouse, MC38-Nectin-4 syngeneic tumour, circulating white blood cells; 5 mg/kg, 24 h): 14
COc1c2c(cc3oc(COC4OC(CO)C(O)C(O)C4O)cc(=O)c13)OC(C(C)(C)O)C2 (stereo not drawn) — ear edema weight increase (mouse, xylene ear edema; oral, 1 mg/kg): 5.83 ± 0.23 mg
CCCC[C@H](NC(=O)[C@@H](NC(=O)[C@H](CC(=O)O)NC(=O)[C@H](CCC(N)=O)NC(=O)[C@H](CC(C)C)NC(=O)[C@H](CC(C)C)NC(=O)[C@H](CCCN)NC(=O)[C@H](CCCNC(=N)N)NC(=O)[C@H](C)NC(=O)[C@H](CO)NC(=O)[C@H](CC(C)C)NC(=O)[C@H](CCC(N)=O)NC(=O)[C@H](CC)NC(=O)[C@H](CC(C)C)NC(=O)[C@@H](NC(=O)[C@H](CCCN)NC(=O)[C@H](CCCNC(=N)N)NC(=O)[C@H](Cc1ccc(O)cc1)NC(=O)[C@H](CO)NC(=O)[C@H](CCC(N)=O)NC(=O)[C@@H](NC(=O)[C@H](Cc1ccccc1)NC(=O)[C@@H](NC(=O)[C@H](C)NC(=O)[C@H](CC(=O)O)NC(=O)[C@H](C)NC(=O)CCc1ccc(O)cc1)[C@@H](C)CC)[C@@H](C)O)C(C)C)[C@@H](C)CC)C(=O)N[C@@H](CC(=O)O)C(=O)NCCCCNC(=N)N — serum GH level (GH release, ELISA; male rat, anaesthetised, serum; intravenous, 1 µg/kg, 5 min): 538 ± 58.3 ng/mL
CCOP(=O)(CC(=O)Nc1ccc(S(=O)(=O)N(CC(N)=O)c2ccc(N(CC(N)=O)S(=O)(=O)c3ccc(OC)cc3)c3ccccc23)cc1)OCC — protein level (western blot, refers to: amyloid beta; APP/PS1 mice, hippocampus and frontal cortex; 40 mg/kg): decreased
COc1cc(-c2nc3ccc(C(=O)NCCCN(C)C)cc3n2C2CCC2)cc(OC)c1OC — heterotopic ossification score (Faxitron; ALK2 Q207D transgenic mice; oral, 30 mg/kg twice daily, 12 days; direction not given): 2.58 ± 0.9
CC[C@H]1[C@@H](O)[C@@H]2[C@H](CC[C@]3(C)[C@@H]([C@H](C)CCOS(=O)(=O)[O-])CC[C@@H]23)[C@@]2(C)CC[C@@H](O)C[C@@H]12.[Na+] — fibrosis area (digital image analysis; ob/ob NASH mouse model, liver; oral, 10 mg/kg once daily, 8 weeks; baseline: area): 8.9 ± 0.6%
CC[C@H](C)[C@H](NC(=O)[C@H](Cc1c[nH]cn1)NC(=O)[C@@H]1CSSC[C@H](NC(=O)[C@H](Cc2c[nH]cn2)NC(=O)[C@H](Cc2ccccc2)NC(=O)CN2CCN(CC(=O)O)CCN(CC(=O)O)CCN(CC(=O)O)CC2)C(=O)N2C[C@H](O)C[C@H]2C(=O)N[C@@H](Cc2ccc(O)c(Cl)c2)C(=O)N[C@@H](CC(=O)O)C(=O)N[C@@H](CC(C)C)C(=O)N1)C(=O)N[C@@H](CC(C)C)C(=O)NCc1ccc(CNC(=O)CN2CCN(CC(=O)O)CCN(CC(=O)O)CCN(CC(=O)O)CC2)cc1 [indium-111 labelled] — thrombus to contralateral ratio (ex vivo gamma counting; rat, carotid crush thrombosis model, carotid artery; baseline: thrombosed over contralateral vessel): 3 to 4
CCCC[C@H](NC(=O)[C@@H](NC(=O)[C@H](CC(=O)O)NC(=O)[C@H](CCC(N)=O)NC(=O)[C@H](CC(C)C)NC(=O)[C@H](CC(C)C)NC(=O)[C@H](CCCN)NC(=O)[C@H](CCCNC(=N)N)NC(=O)[C@H](C)NC(=O)[C@H](CO)NC(=O)[C@H](CC(C)C)NC(=O)[C@H](CCC(N)=O)NC(=O)[C@H](CC)NC(=O)[C@H](CC(C)C)NC(=O)[C@@H](NC(=O)[C@H](CCCN)NC(=O)[C@H](CCCNC(=N)N)NC(=O)[C@H](Cc1ccc(O)cc1)NC(=O)[C@H](CO)NC(=O)[C@H](CCC(N)=O)NC(=O)[C@@H](NC(=O)[C@H](Cc1ccccc1)NC(=O)[C@@H](NC(=O)[C@H](C)NC(=O)[C@H](CC(=O)O)NC(=O)[C@@H](C)NC(=O)CCc1ccc(O)cc1)[C@@H](C)CC)[C@@H](C)O)C(C)C)[C@@H](C)CC)C(=O)N[C@@H](CC(=O)O)C(=O)N[C@@H](CCCNC(=N)N)C(=O)NC — serum GH level (GH release, ELISA; male Sprague-Dawley rat, anaesthetised, serum; subcutaneous, 3 µg/kg, 0 min): 37.6 ± 15.5 ng/mL
O=C(CN1CCC(O)CC1)Nc1nccs1 — DPPH radical scavenging (0.1 mM, 1 h): 24.6%
[2H]C([2H])([2H])C(c1cc2nnc(-c3cc(F)ccc3F)n2nc1OCc1ncnn1C)(C([2H])([2H])[2H])C([2H])([2H])[2H] — seizure severity change (amygdala-kindled Wistar rats; oral, 6 mg/kg, 2 h before stimulation, Racine scale, unit not given; baseline: baseline): -3.2
CCCC[C@H](NC(=O)[C@@H](NC(=O)[C@H](CC(=O)O)NC(=O)[C@H](CCC(N)=O)NC(=O)[C@H](CC(C)C)NC(=O)[C@H](CC(C)C)NC(=O)[C@H](CCCN)NC(=O)[C@H](CCCNC(=N)N)NC(=O)[C@H](C)NC(=O)[C@H](CO)NC(=O)[C@H](CC(C)C)NC(=O)[C@H](CCC(N)=O)NC(=O)[C@H](CC)NC(=O)[C@H](CC(C)C)NC(=O)[C@@H](NC(=O)[C@H](CCCN)NC(=O)[C@H](CCCNC(=N)N)NC(=O)[C@H](Cc1ccc(O)cc1)NC(=O)[C@H](CO)NC(=O)[C@H](CCC(N)=O)NC(=O)[C@@H](NC(=O)[C@H](Cc1ccccc1)NC(=O)[C@@H](NC(=O)[C@H](C)NC(=O)[C@H](CC(=O)O)NC(=O)[C@H](C)NC(=O)[C@H](Cc1ccc(O)cc1)NC)[C@@H](C)CC)[C@@H](C)O)C(C)C)[C@@H](C)CC)C(=O)N[C@@H](CC(=O)O)C(=O)N[C@@H](CCCNC(=N)N)C(=O)NC — serum GH level (GH release, ELISA; male Sprague-Dawley rat, anaesthetised, serum; subcutaneous, 3 µg/kg, 15 min): 493 ± 21.8 ng/mL
